Experimental data pooled from the literature.
Numbered parts are unrelated; each lists some results of a single study. Changes are numbered by the printed parent chain.

Study 1 — method: RNA Bind-n-Seq; form: RNA; matrix: in vitro; tested at: 200 nM; notes: whole 134-nt RNA, ends assumed; together with: 150 mM LiCl; reference: input library; direction: higher = stronger binding; all molecules: 7-deaza-guanosine replaces G
Target: Ras GTPase-activating protein-binding protein 1, full length (G3BP1, Homo sapiens, UniProt Q13283)
UniProt Q13283, sequence (whole entry, looked up): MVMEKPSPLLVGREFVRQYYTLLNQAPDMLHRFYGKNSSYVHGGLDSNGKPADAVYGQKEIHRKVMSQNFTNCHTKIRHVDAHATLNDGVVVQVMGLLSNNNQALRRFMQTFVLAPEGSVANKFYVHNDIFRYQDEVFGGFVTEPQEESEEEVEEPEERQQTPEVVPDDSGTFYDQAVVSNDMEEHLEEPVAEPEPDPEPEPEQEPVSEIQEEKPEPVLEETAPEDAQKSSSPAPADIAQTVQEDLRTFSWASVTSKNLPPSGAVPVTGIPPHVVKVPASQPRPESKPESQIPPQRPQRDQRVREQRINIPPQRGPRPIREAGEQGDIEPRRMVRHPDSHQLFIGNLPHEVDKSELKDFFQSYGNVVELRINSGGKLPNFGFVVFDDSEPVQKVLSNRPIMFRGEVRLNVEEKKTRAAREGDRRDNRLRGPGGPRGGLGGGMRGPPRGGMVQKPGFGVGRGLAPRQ
`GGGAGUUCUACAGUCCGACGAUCUCAAGUCCUGUGCUACACAUCGUAUGUACCGAAUCGGGUGGGUGGGUUUUUGGGAAAGUAUUAUGUUACGCCGUUCGGAUCUGCACUUCCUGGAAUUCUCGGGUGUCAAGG` has a log2 enrichment of -1.22.
`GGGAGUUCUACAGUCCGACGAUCUUCCUCAAGUCCUGUGCUACACAUCGUAUGUACCGAAUCGGCGGGCGGCGGAAAGUAUUAUGUUACGCCGUUCGGAUCUGCACUUCCAGCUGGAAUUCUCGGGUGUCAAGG` has a log2 enrichment of 1.22.
For `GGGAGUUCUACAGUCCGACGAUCGCAGGAAGUAAAAACAAAUUGAAAUGCUUCGGAUAGUGGCAGGGGUGGGGGUUGCUAAGGAAAGGGUGGGAUGGGAGUGGGUAAAGAGUUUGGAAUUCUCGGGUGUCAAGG`, the log2 enrichment was 0.174.
`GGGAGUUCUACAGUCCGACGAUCAAGUCCUGUGCUACACAUCGUAUGUACCGAAUCGGGUUUGGGUGGGAAAAAAAGGGAAAGUAUUAUGUUACGCCGUUCGGAUCUGCACUUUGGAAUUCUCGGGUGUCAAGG` gave a log2 enrichment of 0.129.
The log2 enrichment of `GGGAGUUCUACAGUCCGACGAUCCAAGUCCUGUGCUACACAUCGUAUGUACCGAAUCGGGCCCCGGCCCCGGCCCCGGAAAGUAUUAUGUUACGCCGUUCGGAUCUGCACUUCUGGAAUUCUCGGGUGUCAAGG` is reported as -0.985.
For `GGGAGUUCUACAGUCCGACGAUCUCCUGUGCUACACAUCGUAUGUACCGAAUCGGGAAAAAAAGGGUUUUUUUGGGAAAGGGAAAGUAUUAUGUUACGCCGUUCGGAUCUGCAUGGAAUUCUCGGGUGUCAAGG`, the log2 enrichment was -1.43.
With `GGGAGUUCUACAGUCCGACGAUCUAACUUUAGAGGAGGAUCUGAUGGAUAUGGAAGUGGACGUGGAUUUGGGGAUGGCUAUAAUGGGUAUGGAGGAGGACCUGGAGGUGGCAAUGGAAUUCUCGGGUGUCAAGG` the log2 enrichment was 0.0382.
With `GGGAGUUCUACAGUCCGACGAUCAAGUCCUGUGCUACACAUCGUAUGUACCGAAUCGGGUUUUUUUGGGUUUGGGAGGGAAAGUAUUAUGUUACGCCGUUCGGAUCUGCACUUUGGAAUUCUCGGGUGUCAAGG` the log2 enrichment was -0.372.
`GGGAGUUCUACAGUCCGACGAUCCUCAAGUCCUGUGCUACACAUCGUAUGUACCGAAUCGGAGGUGGUUUUUUUGGAAAGUAUUAUGUUACGCCGUUCGGAUCUGCACUUCCAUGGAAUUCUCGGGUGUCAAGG` gave a log2 enrichment of -0.492.
The log2 enrichment of `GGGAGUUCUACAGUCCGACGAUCUCCUCAAGUCCUGUGCUACACAUCGUAUGUACCGAAUCGGAGGAGGAGGGGAAAGUAUUAUGUUACGCCGUUCGGAUCUGCACUUCCAGCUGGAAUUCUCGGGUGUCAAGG` is reported as -0.808.
`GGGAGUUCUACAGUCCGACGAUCCUGUGCUACACAUCGUAUGUACCGAAUCGGGGAAAAAAAGGGGAAAAAGGGGAAAAAGGGGAAAGUAUUAUGUUACGCCGUUCGGAUCUGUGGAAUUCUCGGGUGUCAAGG` has a log2 enrichment of 0.471.

Study 2 — target: CCNE2, cyclin fold, Cln2 fusion (human); method: yeast growth competition, sequencing; matrix: yeast; notes: strong parent motif; reference: not given; direction: higher = stronger binding
Starting sequence: GMNC docking peptide (human); KNAKRNLSSEFAN
For `F11M`, “normalised enrichment score” read 0.834.
Under “normalised enrichment score”, `N2G` is recorded as 2.67.
For `E10P`, “normalised enrichment score” read 0.0239.
`S9F` — result for “normalised enrichment score”: 2.3.
For `E10W`, “normalised enrichment score” read 1.7.
`A12I` — result for “normalised enrichment score”: 1.52.
Under “normalised enrichment score”, `E10C` is recorded as 1.27.
Under “normalised enrichment score”, `L7D` is recorded as 0.644.
`F11S`: “normalised enrichment score” 0.352.
For `N2C`, “normalised enrichment score” read 1.31.
`N6E` — result for “normalised enrichment score”: 0.748.
`S9K`: “normalised enrichment score” 2.09.
`R5G` — result for “normalised enrichment score”: -0.0727.
`S8Y` — result for “normalised enrichment score”: 1.35.
For `K4S`, “normalised enrichment score” read 0.369.
For `E10I`, “normalised enrichment score” read 1.02.
`N2H`: “normalised enrichment score” 1.41.

Study 3 — target: UBE2V1 UBC core domain (UniProt Q13404); method: yeast two-hybrid; matrix: yeast; notes: mostly zero background; reference: not given; direction: higher = stronger interaction
B1: BFAR RING domain (UniProt Q9NZS9); chain GPQISVSEFSCHCCYDILVNPTTLNCGHSFCRHCLALWWASSKKTECPECREKWEGFPKVS
B2: RNF6 RING domain (UniProt Q9Y252); chain NSIDSELGKICSVCISDYVTGNKLRQLPCMHEFHIHCIDRWLSENCTCPICRQPVLGSNIAN
B3: RING1 RING domain (UniProt Q06587); chain SPRSLHSELMCPICLDMLKNTMTTKECLHRFCSDCIVTALRSGNKECPTCRKKLVSKRSLR
B4: RNF103 RING domain (UniProt O00237); chain WPADMLHCTECVVCLENFENGCLLMGLPCGHVFHQNCIVMWLAGGRHCCPVCRWPSYKKKQPY
B5: MID2 RING domain (UniProt Q9UJV3); chain KMETLESELTCPICLELFEDPLLLPCAHSLCFSCAHRILVSSCSSGESIEPITAFQCPTCRYVISLNHRGL
B6: HLTF RING domain (UniProt Q14527); chain LILSSGSDEECAICLDSLTVPVITHCAHVFCKPCICQVIQNEQPHAKCPLCRNDIHEDNLLE
B7: TRIM41 RING domain (UniProt Q8WV44); chain PVQTLQEEAVCAICLDYFTDPVSIGCGHNFCRVCVTQLWGGEDEEDRDELDREEEEEDGEEE
B8: TRIM11 RING domain (UniProt Q96F44); chain LSTNLQEEATCAICLDYFTDPVMTDCGHNFCRECIRRCWGQPEGPYACPECRELSPQRNLRP
B9: CNOT4 RING domain (UniProt O95628); chain MSRSPDAKEDPVECPLCMEPLEIDDINFFPCTCGYQICRFCWHRIRTDENGLCPACRKPYPED
B10: ZMYND11 RING domain (UniProt Q15326); chain DEIDWETENHDWYCFECHLPGEVLICDLCFRVYHSKCLSDEFRLRDSSSPWQCPVCRSIKKKNTNKQEM
B11: MKRN3 RING domain (UniProt Q13064); chain FAVQRGMDKVCGICMEVVYEKANPNDRRFGILSNCNHSFCIRCIRRWRSARQFENRIVKSCPQCRVTSELVIPSE
Residues (chain): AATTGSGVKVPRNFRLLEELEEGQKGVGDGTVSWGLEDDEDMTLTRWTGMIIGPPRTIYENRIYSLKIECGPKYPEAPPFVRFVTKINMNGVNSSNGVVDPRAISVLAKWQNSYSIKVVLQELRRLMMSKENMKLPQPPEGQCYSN
`B1 (BFAR RING domain)` — result for “lacZ reporter activity”: 0.
Under “lacZ reporter activity”, `LVKDFNPYITCYICKGYLIKPTTVTECLHTFCKTCIVQHFEDSNDCPRCGNQVHETNPLE (PCGF5 RING domain (UniProt Q86SE9))` is recorded as 0.
`FDPPLESKYECPICLMALREAVQTPCGHRFCKACIIKSIRDAGHKCPVDNEILLENQLFP (TRAF6 RING domain (UniProt Q9Y4K3))`: “lacZ reporter activity” 0.
Under “lacZ reporter activity”, `B2 (RNF6 RING domain)` is recorded as 0.
Under “lacZ reporter activity”, `B3 (RING1 RING domain)` is recorded as 0.
Under “lacZ reporter activity”, `DDVLTKDAGECVICLEELLQGDTIARLPCLCIYHKSCIDSWFEVNRSCPEHPAD (ZNRF1 RING domain (UniProt Q8ND25))` is recorded as 0.
For `B4 (RNF103 RING domain)`, “lacZ reporter activity” read 0.
`B5 (MID2 RING domain)` — result for “lacZ reporter activity”: 0.
`B6 (HLTF RING domain)`: “lacZ reporter activity” 0.
Under “lacZ reporter activity”, `B7 (TRIM41 RING domain)` is recorded as 0.
Under “lacZ reporter activity”, `B8 (TRIM11 RING domain)` is recorded as 0.
`B9 (CNOT4 RING domain)` — result for “lacZ reporter activity”: 0.
For `FAEQPSVKLCCQLCCSVFKDPVITTCGHTFCRRCALKSEKCPVDNVKLTVVVNNI (TRAF7 RING domain (UniProt Q6Q0C0))`, “lacZ reporter activity” read 0.
For `B10 (ZMYND11 RING domain)`, “lacZ reporter activity” read 0.
`B11 (MKRN3 RING domain)` — result for “lacZ reporter activity”: 0.

Study 4 — method: DHFR PCA, deep sequencing; matrix: yeast; together with: (+)-ABA 17 µM; reference: wild-type fitted maximum; direction: higher = stronger binding
Target: ABI1, truncated, D143A, DHFR fusion (Arabidopsis thaliana)
Notes: methotrexate growth selection, single substitutions
Starting sequence: PYL1, truncated, DHFR fusion (Arabidopsis thaliana); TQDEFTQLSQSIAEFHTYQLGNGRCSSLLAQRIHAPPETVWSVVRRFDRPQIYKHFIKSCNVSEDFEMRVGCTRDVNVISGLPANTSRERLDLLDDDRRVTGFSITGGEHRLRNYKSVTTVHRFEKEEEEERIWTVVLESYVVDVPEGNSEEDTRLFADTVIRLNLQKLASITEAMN
`D96N`: “relative binding score” 52.7%.
Under “relative binding score”, `E67S` is recorded as 79.3%.
For `S26C`, “relative binding score” read 82.5%.
For `I33D`, “relative binding score” read -2.57%.
For `E64C`, “relative binding score” read 76.6%.
For `R46E`, “relative binding score” read 58%.
Under “relative binding score”, `E130R` is recorded as 84.4%.
For `K126R`, “relative binding score” read 93.6%.
`T6E` — result for “relative binding score”: 92.5%.
Under “relative binding score”, `S117E` is recorded as -22.4%.
`D3A` — result for “relative binding score”: 79.8%.
`L20D`: “relative binding score” 85.2%.
For `E174I`, “relative binding score” read 31.1%.
`E152H`: “relative binding score” 77.2%.
Under “relative binding score”, `S140L` is recorded as -1.79%.
For `R69G`, “relative binding score” read 76.9%.
`C60V` — result for “relative binding score”: 82%.
For `N85I`, “relative binding score” read 78.5%.
Under “relative binding score”, `A35E` is recorded as 12.2%.
`V143I` — result for “relative binding score”: 6.54%.
Under “relative binding score”, `I33A` is recorded as 3.27%.
For `G21N`, “relative binding score” read 78%.
Under “relative binding score”, `I172W` is recorded as 31.4%.
`L169K`: “relative binding score” 1.81%.
For `E89A`, “relative binding score” read -20.6%.

Study 5 — target: JDP2, bZIP domain (human); method: DHFR protein complementation; matrix: yeast; reference: wild-type JUN-FOS pair; direction: higher = stronger binding
Notes: single substitutions, most at no-binding floor
Starting sequence: JUN, bZIP domain (human); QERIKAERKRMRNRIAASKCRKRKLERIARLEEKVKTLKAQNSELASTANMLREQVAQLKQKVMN; partner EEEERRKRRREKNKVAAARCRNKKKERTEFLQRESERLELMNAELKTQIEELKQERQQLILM
For `E33P`, the binding fitness was -0.214 natural log.
For `E54K`, the binding fitness was 0.183 natural log.
`R30E` has a binding fitness of 0.339 natural log.
`I28R` has a binding fitness of 0.317 natural log.
With `V35L` the binding fitness was 0.217 natural log.
`V35G` has a binding fitness of -0.275 natural log.
The binding fitness of `A57Q` is reported as 0.28 natural log.
`E32A` gave a binding fitness of 0.464 natural log.
The binding fitness of `E44F` is reported as 0.253 natural log.
`L59W` gave a binding fitness of 0.141 natural log.
The binding fitness of `A40Q` is reported as 0.403 natural log.
For `L52R`, the binding fitness was -0.66 natural log.
For `R53P`, the binding fitness was -0.939 natural log.
With `T37Q` the binding fitness was 0.388 natural log.
The binding fitness of `A57P` is reported as -0.613 natural log.
The binding fitness of `L31P` is reported as -0.0193 natural log.

Excerpt of the above (study 5):
The binding fitness of `A57Q` is reported as 0.28 natural log.
For `R53P`, the binding fitness was -0.939 natural log.
The binding fitness of `A40Q` is reported as 0.403 natural log.
`I28R` has a binding fitness of 0.317 natural log.
`V35G` has a binding fitness of -0.275 natural log.
For `L52R`, the binding fitness was -0.66 natural log.
With `V35L` the binding fitness was 0.217 natural log.
`R30E` has a binding fitness of 0.339 natural log.
